Published values pooled from the literature.
Each line is one published result; not all experiments were run side by side. ± gives the spread as reported.
rocR: Cyclic di-GMP phosphodiesterase RocR (rocR, Pseudomonas aeruginosa, UniProt Q9HX69)
Chain of UniProt Q9HX69 (whole entry, looked up): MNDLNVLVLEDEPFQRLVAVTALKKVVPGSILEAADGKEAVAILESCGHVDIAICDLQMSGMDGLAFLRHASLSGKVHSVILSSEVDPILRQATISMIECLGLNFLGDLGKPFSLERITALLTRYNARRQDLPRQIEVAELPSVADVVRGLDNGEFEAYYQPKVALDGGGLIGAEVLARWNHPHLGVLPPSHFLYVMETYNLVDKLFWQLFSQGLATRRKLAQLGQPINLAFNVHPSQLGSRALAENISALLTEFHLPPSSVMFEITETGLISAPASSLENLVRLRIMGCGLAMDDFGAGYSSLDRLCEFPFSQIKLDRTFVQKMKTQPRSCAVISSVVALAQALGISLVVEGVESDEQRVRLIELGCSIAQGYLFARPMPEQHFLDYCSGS
CPL: CPL (Toxoplasma gondii, UniProt Q6DMN0)
Aminopeptidase N: Aminopeptidase N (Neisseria meningitidis, UniProt Q9JYV4)
Chain of UniProt P00747 (whole entry, unmodified, looked up): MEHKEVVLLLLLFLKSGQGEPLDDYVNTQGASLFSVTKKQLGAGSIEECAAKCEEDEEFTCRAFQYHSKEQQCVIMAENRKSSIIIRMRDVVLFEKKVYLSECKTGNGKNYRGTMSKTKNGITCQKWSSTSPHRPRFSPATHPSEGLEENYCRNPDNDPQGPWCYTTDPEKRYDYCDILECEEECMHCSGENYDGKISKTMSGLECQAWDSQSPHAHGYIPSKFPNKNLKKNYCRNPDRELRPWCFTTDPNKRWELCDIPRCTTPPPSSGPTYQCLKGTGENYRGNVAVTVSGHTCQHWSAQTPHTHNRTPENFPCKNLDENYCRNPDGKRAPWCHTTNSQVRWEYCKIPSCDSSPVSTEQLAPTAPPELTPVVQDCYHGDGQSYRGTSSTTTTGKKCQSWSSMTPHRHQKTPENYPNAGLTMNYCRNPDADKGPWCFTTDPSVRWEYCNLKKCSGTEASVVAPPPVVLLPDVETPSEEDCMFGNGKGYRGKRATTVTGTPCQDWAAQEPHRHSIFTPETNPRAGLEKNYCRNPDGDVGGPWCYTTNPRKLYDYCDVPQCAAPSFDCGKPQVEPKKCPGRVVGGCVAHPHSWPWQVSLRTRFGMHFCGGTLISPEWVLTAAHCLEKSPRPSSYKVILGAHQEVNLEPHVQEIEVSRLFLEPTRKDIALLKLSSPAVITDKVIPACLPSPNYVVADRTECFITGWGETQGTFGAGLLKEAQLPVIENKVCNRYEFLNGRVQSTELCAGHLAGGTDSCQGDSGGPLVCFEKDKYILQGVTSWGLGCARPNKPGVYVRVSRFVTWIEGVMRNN
Chain of UniProt Q86WA6 (whole entry, looked up): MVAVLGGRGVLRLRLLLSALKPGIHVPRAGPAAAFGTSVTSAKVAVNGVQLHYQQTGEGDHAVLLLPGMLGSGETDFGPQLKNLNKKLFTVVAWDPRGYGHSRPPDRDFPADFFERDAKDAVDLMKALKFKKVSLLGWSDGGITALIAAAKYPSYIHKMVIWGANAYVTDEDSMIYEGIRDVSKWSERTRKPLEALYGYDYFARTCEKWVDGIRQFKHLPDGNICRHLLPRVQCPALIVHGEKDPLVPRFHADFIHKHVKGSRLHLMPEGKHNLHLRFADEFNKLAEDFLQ
Chain of UniProt P06276 (whole entry, looked up): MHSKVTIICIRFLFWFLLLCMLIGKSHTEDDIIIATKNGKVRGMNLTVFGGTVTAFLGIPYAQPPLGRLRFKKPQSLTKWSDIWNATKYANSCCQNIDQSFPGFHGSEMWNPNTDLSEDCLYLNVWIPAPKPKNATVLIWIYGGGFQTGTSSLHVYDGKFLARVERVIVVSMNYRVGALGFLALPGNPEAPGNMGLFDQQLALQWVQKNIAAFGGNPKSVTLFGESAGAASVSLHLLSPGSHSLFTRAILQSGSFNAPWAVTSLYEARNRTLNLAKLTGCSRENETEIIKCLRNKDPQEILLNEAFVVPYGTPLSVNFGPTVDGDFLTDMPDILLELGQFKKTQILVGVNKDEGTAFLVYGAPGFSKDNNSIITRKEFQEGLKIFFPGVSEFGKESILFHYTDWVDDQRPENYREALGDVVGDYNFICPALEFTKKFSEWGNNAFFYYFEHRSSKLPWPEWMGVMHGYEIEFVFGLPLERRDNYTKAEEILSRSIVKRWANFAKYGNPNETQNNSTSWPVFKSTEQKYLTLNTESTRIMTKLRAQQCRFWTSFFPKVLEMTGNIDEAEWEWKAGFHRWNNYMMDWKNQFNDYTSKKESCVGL
Chain of UniProt Q08345 (whole entry, unmodified, looked up): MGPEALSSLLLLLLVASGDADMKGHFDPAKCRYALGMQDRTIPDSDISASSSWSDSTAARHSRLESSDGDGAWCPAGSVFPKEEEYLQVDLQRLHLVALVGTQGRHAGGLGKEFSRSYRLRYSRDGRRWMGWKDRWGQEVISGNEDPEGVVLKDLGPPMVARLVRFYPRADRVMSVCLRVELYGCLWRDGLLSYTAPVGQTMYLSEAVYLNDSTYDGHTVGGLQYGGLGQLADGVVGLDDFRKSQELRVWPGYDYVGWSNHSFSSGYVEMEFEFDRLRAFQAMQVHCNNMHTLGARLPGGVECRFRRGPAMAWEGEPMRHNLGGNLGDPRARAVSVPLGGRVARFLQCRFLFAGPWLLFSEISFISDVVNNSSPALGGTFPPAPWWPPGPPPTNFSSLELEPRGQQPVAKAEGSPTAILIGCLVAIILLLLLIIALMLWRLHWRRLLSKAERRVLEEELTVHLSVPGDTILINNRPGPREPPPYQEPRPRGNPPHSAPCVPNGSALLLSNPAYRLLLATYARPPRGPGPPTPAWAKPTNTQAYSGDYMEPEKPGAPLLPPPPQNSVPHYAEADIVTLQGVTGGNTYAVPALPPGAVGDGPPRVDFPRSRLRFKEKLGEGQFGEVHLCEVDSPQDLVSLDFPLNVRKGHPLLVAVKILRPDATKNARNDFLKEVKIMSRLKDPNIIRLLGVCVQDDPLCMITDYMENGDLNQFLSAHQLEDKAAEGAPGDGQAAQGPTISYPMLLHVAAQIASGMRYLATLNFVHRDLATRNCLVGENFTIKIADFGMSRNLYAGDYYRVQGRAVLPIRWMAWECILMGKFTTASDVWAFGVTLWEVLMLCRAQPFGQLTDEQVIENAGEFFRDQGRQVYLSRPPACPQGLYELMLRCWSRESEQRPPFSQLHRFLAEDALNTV
Chain of UniProt P04062 (whole entry, looked up): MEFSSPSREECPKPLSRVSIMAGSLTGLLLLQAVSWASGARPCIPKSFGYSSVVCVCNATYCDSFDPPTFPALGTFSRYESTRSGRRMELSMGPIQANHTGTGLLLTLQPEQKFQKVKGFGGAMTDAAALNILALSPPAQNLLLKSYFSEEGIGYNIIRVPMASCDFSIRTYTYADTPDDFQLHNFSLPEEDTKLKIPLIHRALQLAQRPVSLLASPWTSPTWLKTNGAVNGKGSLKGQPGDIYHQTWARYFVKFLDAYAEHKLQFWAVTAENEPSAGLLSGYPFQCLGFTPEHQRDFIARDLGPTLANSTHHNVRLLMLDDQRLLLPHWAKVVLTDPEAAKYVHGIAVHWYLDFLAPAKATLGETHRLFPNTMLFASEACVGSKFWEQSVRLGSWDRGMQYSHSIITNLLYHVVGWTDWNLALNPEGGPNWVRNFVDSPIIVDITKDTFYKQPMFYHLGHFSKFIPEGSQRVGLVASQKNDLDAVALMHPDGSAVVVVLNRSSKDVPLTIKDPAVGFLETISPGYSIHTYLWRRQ
Chain of UniProt Q2G036 (whole entry, looked up): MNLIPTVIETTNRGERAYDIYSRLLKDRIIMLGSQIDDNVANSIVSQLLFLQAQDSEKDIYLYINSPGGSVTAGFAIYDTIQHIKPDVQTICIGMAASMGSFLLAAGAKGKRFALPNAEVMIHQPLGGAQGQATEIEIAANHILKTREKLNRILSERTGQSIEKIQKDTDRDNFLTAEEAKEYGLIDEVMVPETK
Chain of UniProt Q9NVV5 (whole entry, looked up): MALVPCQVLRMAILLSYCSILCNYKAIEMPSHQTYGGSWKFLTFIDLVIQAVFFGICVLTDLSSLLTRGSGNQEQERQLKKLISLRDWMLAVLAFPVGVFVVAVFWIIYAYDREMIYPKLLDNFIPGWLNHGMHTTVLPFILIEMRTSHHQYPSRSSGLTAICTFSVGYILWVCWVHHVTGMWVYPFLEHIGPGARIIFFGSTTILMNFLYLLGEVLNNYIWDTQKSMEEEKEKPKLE

For `CC[C@H](C)[C@H](NC(=O)[C@@H](NC(=O)[C@H](CCCCN)NC(=O)[C@H](CO)NC(=O)CN)[C@@H](C)O)C(=O)N[C@@H](CCC(N)=O)C(=O)N[C@@H](CCC(=O)O)C(=O)N[C@@H](CCCCN)C(=O)N[C@@H](CCC(=O)O)C(=O)N[C@@H](CCC(N)=O)C(=O)N[C@@H](CCC(=O)O)C(=O)N[C@@H](CC(C)C)C(=O)N[C@@H](CCCCN)C(=O)N[C@@H](CC(N)=O)C(=O)N[C@@H](CC(C)C)C(=O)N[C@@H](CCCCN)C(=O)N[C@@H](CC(=O)O)C(=O)N[C@@H](CC(N)=O)C(=O)N[C@H](C(=O)N[C@@H](CCC(=O)O)C(=O)N[C@@H](CC(C)C)C(=O)N[C@@H](CCC(=O)O)C(=O)N[C@@H](CCCNC(=N)N)C(=O)N[C@@H](CC(C)C)C(=O)N[C@@H](CCCCN)C(=O)N[C@@H](CC(N)=O)C(=O)N[C@@H](CCC(=O)O)C(=O)N[C@@H](CCCNC(=N)N)C(=O)N[C@@H](Cc1c[nH]cn1)C(=O)N[C@@H](CC(=O)O)C(=O)N[C@@H](Cc1c[nH]cn1)C(=O)N[C@@H](CC(=O)O)C(=O)N[C@@H](CCC(=O)O)C(=O)N[C@@H](CCC(=O)O)C(=O)N[C@@H](C)C(=O)N[C@@H](CCC(=O)O)C(=O)N[C@@H](CCCNC(=N)N)C(=O)N[C@@H](CCCCN)C(=O)N[C@@H](C)C(=O)N[C@@H](CC(C)C)C(=O)N[C@@H](CCC(=O)O)C(=O)N[C@@H](CC(=O)O)C(=O)N[C@@H](CCCCN)C(=O)N[C@@H](CC(C)C)C(=O)N[C@@H](C)C(=O)N[C@@H](CC(=O)O)C(=O)N[C@@H](CCCCN)C(=O)N[C@@H](CCC(N)=O)C(=O)N[C@@H](CCC(=O)O)C(=O)N[C@@H](Cc1c[nH]cn1)C(=O)N[C@@H](CC(C)C)C(=O)N[C@@H](CC(=O)O)C(=O)NCC(=O)N[C@@H](C)C(=O)N[C@@H](CC(C)C)C(=O)N[C@@H](CCCNC(=N)N)C(=O)N[C@@H](Cc1ccc(O)cc1)C(=O)O)C(C)C`, the koff was 0.154 ± 0.015 s⁻¹ (Plasminogen, kringle 2 domain (PLG, Homo sapiens, UniProt P00747, C188G/E240D/L256Y); SPR; pH 7.4, 25 °C, kringle 2 domain).
`CC(C)C[C@H](NC(=O)[C@H](CCC(=O)O)NC(=O)[C@H](C)NC(=O)[C@H](CCC(=O)O)NC(=O)[C@H](CCC(=O)O)NC(=O)[C@H](Cc1c[nH]cn1)NC(=O)[C@H](CCCNC(=N)N)NC(=O)[C@H](CCC(=O)O)NC(=O)[C@H](CC(N)=O)NC(=O)[C@H](CCCCN)NC(=O)[C@H](CC(C)C)NC(=O)[C@H](CCCNC(=N)N)NC(=O)[C@H](CCC(N)=O)NC(=O)[C@H](CC(C)C)NC(=O)[C@H](CCC(N)=O)NC(=O)[C@H](C)NC(=O)[C@H](CC(N)=O)NC(=O)[C@H](C)NC(=O)[C@@H](NC(=O)[C@H](CC(C)C)NC(=O)[C@H](CCCCN)NC(=O)[C@H](CCC(=O)O)NC(=O)[C@@H](NC(=O)[C@H](CO)NC(=O)CN)C(C)C)[C@@H](C)O)C(=O)N[C@@H](CCC(=O)O)C(=O)N[C@@H](CCCNC(=N)N)C(=O)N[C@@H](CC(C)C)C(=O)N[C@@H](CCCCN)C(=O)N[C@@H](CO)C(=O)N[C@@H](CCC(=O)O)C(=O)N[C@@H](Cc1ccc(O)cc1)C(=O)O` has a koff of 0.086 s⁻¹ (Plasminogen (PLG, Homo sapiens, UniProt P00747, C188G/E240D/L256Y); binding, SPR; pH 7.4).
`O=C(CCCC[C@@H]1SC[C@@H]2NC(=O)N[C@@H]21)NCCCCCCCCN1[C@H]2[C@H](O)[C@@H](O)[C@H](O[C@@H]3OC[C@@H](O)[C@H](O)[C@H]3O)C[C@H]21` (stereo partly shown) — result for probe labelling: “inhibited” (Probable endo-1,4-beta-xylanase C (xlnC, Aspergillus niger, UniProt C5J411); activity-based probe binding, competitive inhibitor, in-gel fluorescence; Aspergillus niger, xylan-induced secretome; concentration not given, band near 30 kDa, together with: Cy5 xylobiose activity-based probe).
With `O=C(O)/C=C/c1cc(O)cc(O)c1` the inhibition was 48.2 ± 3.34% (ACHE (Homo sapiens, UniProt P22303); enzyme activity, inhibitor; 62.5 µg/mL).
For `Nc1nc2c([C@@H]3O[C@@H]4COP(=O)(O)O[C@H]5[C@@H](O)[C@H](n6cnc7c(=O)[nH]c(N)nc76)O[C@@H]5COP(=O)(O)O[C@H]4[C@H]3O)snc2c(=O)[nH]1`, “association rate constant k1” read 1.85e+06 ± 70000 M⁻¹ s⁻¹ (rocR; substrate, HPLC; 10 µM, together with: 100 nM enzyme).
`CN(C)c1ccc(C(=O)N2CCN3C(=O)N(OC(=O)N4CCC(CCc5ccc(Cl)cc5)CC4)C(=O)C3C2)cc1` (stereo not shown): probe labelling “inhibited” (Androgen-induced gene 1 protein (Homo sapiens, UniProt Q9NVV5); inhibitor; LNCaP; concentration not given).
`Nc1nc2c([C@@H]3O[C@@H]4COP(=O)(O)O[C@H]5[C@@H](O)[C@H](n6cnc7c(=O)[nH]c(N)nc76)O[C@@H]5COP(=O)(O)O[C@H]4[C@H]3O)scc2c(=O)[nH]1`: “association rate constant k1” 21000 ± 1000 M⁻¹ s⁻¹ (rocR; substrate, HPLC; 10 µM, together with: 100 nM enzyme).
For `CCCCCCCCNP(=O)(Oc1ccccc1)O[C@@H]1O[C@H](CO)[C@@H](O)[C@H](O)[C@H]1F` (stereo partly shown), “inactivation rate constant” read 15 min⁻¹ (GBA1 (Homo sapiens, UniProt P04062); enzyme activity, irreversible inhibitor; pH 5.5, 37 °C, together with: 2,4-dinitrophenyl beta-D-glucopyranoside).
For `CCN1CCN(Cc2ccc(C(=O)Nc3ccc(C)c(NCc4cnc5[nH]ccc5c4OC)c3)cc2C(F)(F)F)CC1`, “EC50 fold shift” read 100 fold (DDR1 (Homo sapiens, UniProt Q08345, G707A); autophosphorylation; U2OS; relative to: G707A mutant over wild type).
For `CC(=O)N[C@H]1[C@H]([C@H](O)[C@H](O)CO)O[C@@](OCCCNC(=O)OCc2ccccc2)(C(=O)O)C[C@@H]1O[C@H]1O[C@H](CO)[C@H](O)[C@H](O)[C@H]1O`, the Km was 180 ± 40 µM (siaD (Neisseria meningitidis, UniProt O33390); substrate; together with: CMP-Neu5Ac).
`S=C(NCc1ccccn1)NCc1ccccn1` gave an inhibition of 62.3% (Cholinesterase (BCHE, Homo sapiens, UniProt P06276); enzyme activity, inhibitor, Ellman; 500 µg/mL).
Under “binding free energy”, `CC[C@H](C)[C@H](NC(=O)[C@H](CC(N)=O)NC(=O)[C@H](CC(N)=O)NC(=O)[C@@H](N)CCCNC(N)=O)C(=O)N1C[C@@H](n2cc([C]34[CH]5[CH]6[CH]7[CH]3[Fe]6754389%10[CH]4[CH]3[CH]8[CH]9[CH]4%10)nn2)C[C@H]1C(=O)N[C@@H](Cc1csc2ccccc12)C(=O)N[C@@H](CO)C(N)=O` (stereo partly shown) is recorded as -41 ± 7.11 kJ/mol (env (Human immunodeficiency virus type 1 group M subtype B, UniProt P35961); ITC; pH 7.4, 25 °C).
`O=C(c1ccc2c(c1)c1ccccc1n2CCN1CCOCC1)c1cccc2ccccc12` gave an Emax of 130% (CNR1 (Homo sapiens, UniProt P21554); GTPγS binding, agonist; cell membranes).
`CCCc1cc(Cc2ccccc2)cc2c1NCCC2NC(=O)C(N)Cc1c(C)cc(O)cc1C` (stereo not shown) has a maximal stimulation of 36% (Oprd1 (Rattus norvegicus, UniProt P33533); GTPγS binding, agonist; C6 cells expressing DOR; relative to: DPDPE at 10 µM).
The selectivity ratio of `CC(C)CCN(c1nc(C#N)nc(N2CCOCC2)n1)C(C)c1ccc(F)cc1` (stereo not shown) is reported as 0.58 (CPL; enzyme activity, inhibitor; relative to: human over Toxoplasma IC50).
The inhibition of `CC(=O)NC(Cc1ccc(Br)c(Cl)c1)C(=O)N[C@@H](C)C(=O)N1CCC[C@H]1C(=O)N1CCC[C@H]1C(=O)N[C@@H](CCC(=O)O)C(=O)N[C@@H](Cc1c[nH]cn1)C(=O)N[C@@H](CO)C(=O)N[C@H](C(=O)N[C@@H](C)C(N)=O)[C@@H](C)OP(=O)(O)O` (stereo partly shown) is reported as 0.48% (DCLK2 (Homo sapiens, UniProt Q8N568); enzyme activity, inhibitor; 10 µM).
`Cc1ncsc1-c1ccc([C@H](C)NC(=O)[C@@H]2C[C@@H](O)CN2C(=O)[C@@H](NC(=O)CN2CCC(CN3CCN(CCC(=O)N4CCN(c5ncc(-c6cc(NC(=O)c7ccc(F)cc7C(F)(F)F)c(N7C[C@@H](C)N(C)[C@@H](C)C7)cc6F)cn5)CC4)CC3)CC2)C(C)(C)C)cc1` gave a degradation of 22% (WD repeat protein WDS (Spodoptera frugiperda, UniProt A0A2H1VC02); degrader, targeted MS; Spodoptera frugiperda L5 larvae; injection, 0.1 nmol/mg).
For `CC(=O)N[C@@H](Cc1c[nH]c2ccccc12)C(=O)N[C@@H](CCC(=O)O)C(=O)N[C@@H](Cc1c[nH]cn1)C(=O)N[C@@H](CC(=O)O)C(=O)Nc1ccc2c(C)cc(=O)oc2c1`, the Vmax was 1370 ± 49.4 RFU/min (Caspase-5 (CASP5, Homo sapiens, UniProt P51878); substrate cleavage, substrate, fluorogenic AMC release; enzyme 0.25 activity units/µL).
With `CSCC[C@H](N)C(=O)Nc1ccc2c(CC(N)=O)cc(=O)oc2c1` the Km was 80.7 ± 0.8 µM (Aminopeptidase N; enzyme activity, substrate; pH 7.5, 37 °C).
For `N#Cc1nc(N2CCOCC2)nc(N(Cc2ccc(F)cc2)CC2CCOCC2)n1`, the selectivity ratio was 0.25 (CPL; enzyme activity, inhibitor; relative to: human over Toxoplasma IC50).
The relative potency of `N[C@@H](Cc1ccc(C(=O)NCCc2cccc3ccccc23)cc1)C(=O)N1Cc2ccccc2C[C@H]1C(=O)N[C@@H](Cc1ccccc1)C(=O)N[C@@H](Cc1ccccc1)C(=O)O` is reported as 7 to 14 fold (OPRD1 (Homo sapiens, UniProt P41143); G-protein activation, agonist; HEK293 stably expressing receptor; relative to: DPDPE).
With `CC(C)(C)OC(=O)N1CCC(C(=O)Oc2ccc(C(F)(F)F)cc2)CC1` the inhibitory concentration was under 1 µM (clpP (Staphylococcus aureus, UniProt Q2G036); enzyme activity, inhibitor).
For `CC(COC(=O)c1ccccc1)OC(=O)C(N)C(C)C` (mixture of isomers), the Vmax was 0.0033 mM/min (BPHL (Homo sapiens, UniProt Q86WA6); hydrolysis, substrate).
For `CCC[C@H](N)C(=O)Nc1ccc2c(CC(N)=O)cc(=O)oc2c1`, “relative hydrolysis rate” read 20 to 40% (Aminopeptidase N; enzyme activity, substrate; 3 µM, pH 7.5, 37 °C; relative to: L-hArg-ACC).
For `CC(=O)NCC(=O)N[C@@H](CO)C(=O)N[C@@H](CCCCNP(=O)(O)O)C(=O)NCC(=O)NCC(N)=O`, the initial velocity was 6.46e-09 M/s (Phospholysine phosphohistidine inorganic pyrophosphate phosphatase (LHPP, Homo sapiens, UniProt Q9H008); substrate; 100 µM, pH 7.8).

For quick reference, copied from above:
`O=C(CCCC[C@@H]1SC[C@@H]2NC(=O)N[C@@H]21)NCCCCCCCCN1[C@H]2[C@H](O)[C@@H](O)[C@H](O[C@@H]3OC[C@@H](O)[C@H](O)[C@H]3O)C[C@H]21` (stereo partly shown) — result for probe labelling: “inhibited” (Probable endo-1,4-beta-xylanase C (xlnC, Aspergillus niger, UniProt C5J411); activity-based probe binding, competitive inhibitor, in-gel fluorescence; Aspergillus niger, xylan-induced secretome; concentration not given, band near 30 kDa, together with: Cy5 xylobiose activity-based probe).
With `O=C(O)/C=C/c1cc(O)cc(O)c1` the inhibition was 48.2 ± 3.34% (ACHE (Homo sapiens, UniProt P22303); enzyme activity, inhibitor; 62.5 µg/mL).
For `Nc1nc2c([C@@H]3O[C@@H]4COP(=O)(O)O[C@H]5[C@@H](O)[C@H](n6cnc7c(=O)[nH]c(N)nc76)O[C@@H]5COP(=O)(O)O[C@H]4[C@H]3O)snc2c(=O)[nH]1`, “association rate constant k1” read 1.85e+06 ± 70000 M⁻¹ s⁻¹ (rocR; substrate, HPLC; 10 µM, together with: 100 nM enzyme).
